Published values pooled from the literature.
Each line is one published result; not all experiments were run side by side. ± gives the spread as reported.

CC(=O)OC[C@H]1O[C@@H](Sc2sc(C(=O)c3ccc(C)cc3)c(N)c2-c2nc3ccccc3s2)[C@H](OC(C)=O)[C@@H](OC(C)=O)[C@H]1OC(C)=O — growth (ACHN; SRB; 10 µM, 48 h; reference: untreated): 87%
COc1cc(CNC(=O)C[C@H](C)CCC=C(C)C)ccc1OCc1cn(-c2ccc(F)cc2)nn1 — growth percent (EKVX; SRB; 10 µM, 48 h): 65.2%
O=Cc1c(O)ccc2ccccc12 — log2 fold change (HUVEC; RNA sequencing, measured: DHCR24; 75 µM, 24 h; reference: DMSO): -3.06
O=C(O)c1ccc(-c2coc3ncc(-c4ccccc4)cc23)cc1Cl — AMPKα Thr172 phosphorylation (A549 (LKB1-deficient); immunoblot; concentration not given, 30 min preincubation, added: ionomycin 1 µM for 5 min): no inhibition
Cc1nc(C)c(C=[N+]([O-])C(C)(C)C)nc1C — ATP content increase (rat primary cerebellar granule neurons; 100 µM, added: MPP+): 36.8%
Nc1nc2cc(CC[C@H]3C[C@@H](n4ccc5c(N)ncnc54)[C@H](O)[C@@H]3O)ccc2cc1Br — SmD1/3 dimethylation reduction (NCI-H1048; measured: SmD1/3-Me2; 10 nM, 72 h): > 80%
CC(C)Cc1ccc(C(C)C(=O)NN=Cc2ccc(OCC(=O)NN=Cc3cccc([N+](=O)[O-])c3)cc2)cc1 (centres unmarked) — viability (U87 MG; MTT; 150 µM, 48 h): 59.1%
CC(C)C(=O)Cc1c(OCC(O)C(C)(C)O)ccc2ccc(=O)oc12 (centres unmarked) — combination index (COLO 320 (ABCB1-overexpressing, multidrug-resistant); cell growth; 200 µM starting, CI at ED50, added: doxorubicin, ratio 92.8:1): 0.82
COc1cc(CNC(=O)C[C@H](C)CCC=C(C)C)ccc1OCc1cn(-c2ccccc2[N+](=O)[O-])nn1 — growth percent (T47D breast cancer cells; SRB; 10 µM, 48 h): 14.6%
O=C(N1CCCC1)n1cc(-c2ccc(-c3ccccc3)cc2)nn1 — SILAC ratio (mouse T-cells; N-terminal labeled proteins, N-terminal enrichment proteomics, measured: NDRG1; 1 nM, 6 h; reference: DMSO): 1.24 ± 0.28
COc1cc(CNC(=O)C[C@H](C)CCC=C(C)C)ccc1OCc1cn(-c2ccc([N+](=O)[O-])cc2)nn1 — growth percent (DU-145; SRB; 10 µM, 48 h): 86.4%
CO[C@H]1N(OC)c2ccccc2[C@@]12CN=C(Nc1cc(C(F)(F)F)cc(C(F)(F)F)c1)S2 (relative stereo) — sub-G1 phase cells (HCT-116; PI flow cytometry; 40 µM, 72 h): 55.1 ± 14.1%
COc1cc(CNC(=O)C[C@H](C)CCC=C(C)C)ccc1OCc1cn(-c2ccc(Cl)cc2Cl)nn1 — growth percent (MDA-MB-435 melanoma cells; SRB; 10 µM, 48 h): 98.2%
O=C1OCC2=C1C(c1cccc(Br)c1)C1=C(N2)C(=O)c2ccccc2C1=O (centres unmarked) — cells in G0/G1 phase (SK-LU-1 cells; PI flow cytometry; 0.16 µM, 24 h): 0%
CC(=O)OC[C@H]1O[C@@H](Sc2sc(C(=O)c3ccc(Br)cc3)c(N)c2-c2nc3ccccc3s2)[C@H](OC(C)=O)[C@@H](OC(C)=O)[C@H]1OC(C)=O — growth (OVCAR-5; SRB; 10 µM, 48 h; reference: untreated): 105%
Cc1cc(Nc2ccc(NC(=O)c3ccc(NC(=O)c4ccncc4)cc3)cc2)nc(N)n1 — reporter reactivation (KG-1 with methylated CMV-luciferase; luciferase reporter gene; 0.32 µM, 24 h; reference: untreated): 1 ± 0.1 fold
COc1cc(CNC(=O)C[C@H](C)CCC=C(C)C)ccc1OCc1cn(-c2cccc(C(F)(F)F)c2)nn1 — growth percent (EKVX; SRB; 10 µM, 48 h): 92.1%
COc1cc(CN2CCN(c3ccc(F)cc3)CC2)c2cc3[n+](cc2c1O)CCc1cc2c(cc1-3)OCO2 — therapeutic index (HeLa and MDCK; SRB; 48 h; reference: CC50 MDCK over IC50 HeLa): 31.5
COc1cc(CNC(=O)C[C@H](C)CCC=C(C)C)ccc1OCc1cn(-c2ccccc2F)nn1 — growth percent (T47D breast cancer cells; SRB; 10 µM, 48 h): 60.6%
CC(C)=CCc1c(OCC2OC2(C)C)ccc2ccc(=O)oc12 (centres unmarked) — combination index (COLO 320 (ABCB1-overexpressing, multidrug-resistant); cell growth; 150 µM starting, CI at ED50, added: doxorubicin, ratio 34.84:1): 0.72
Cc1ccc(Nc2ncc3c(n2)N(C)C(=O)N(c2cc(NC(=O)c4cc(N5CCC(O)CC5)cc(C(F)(F)F)c4)ccc2C)C3)cn1 — GI50 (Hep3B; cell growth or viability, ATP luminescence; 72 h): 201 nM
C[C@H](NC(=O)CNC(=O)[C@H](CCC(=O)O)NC(=O)[C@H](CCC(=O)O)NC(=O)[C@H](CC(=O)O)NC(=O)[C@@H]1CCCN1C(=O)[C@H](Cc1ccccc1)NC(=O)[C@H](CS)NC(=O)[C@H](Cc1ccc(O)cc1)NC(=O)CCCNC(=O)CNC(=O)CNC(=O)[C@@H](C)NC(=O)CN)C(=O)N[C@@H](CS)C(=O)N[C@@H](Cc1ccc(O)cc1)C(N)=O [technetium-99m labelled] — internalization (SK-BR-3; 8 h, 37 °C): 15.3 ± 0.2%
COc1cc(CNC(=O)C[C@H](C)CCC=C(C)C)ccc1OCc1cn(-c2cccc([N+](=O)[O-])c2)nn1 — growth percent (EKVX; SRB; 10 µM, 48 h): 69%
COc1cc2c(OC3OCC(OC)C(OC)C3OC(=O)c3ccc(Br)cc3)c3c(c(-c4ccc5c(c4)OCO5)c2cc1OC)C(=O)OC3 (centres unmarked) — mRNA level (CAL-27; RT-qPCR, measured: Twist; concentration not given, 36 h): decreased
COc1cc(CNC(=O)C[C@H](C)CCC=C(C)C)ccc1OCc1cn(-c2ccccc2)nn1 — growth percent (RXF 393; SRB; 10 µM, 48 h): 90.8%
O=c1[nH]c(N2CCC3(CC2)CN(CCO)c2cc(F)cc(F)c23)nc2c1CCCC2 — active β-catenin level (COLO 320DM; immunofluorescence, measured: non-phosphorylated β-catenin; 1 µM, 16 h, DMSO 100%): 0.63%

Repeated from above:
COc1cc(CNC(=O)C[C@H](C)CCC=C(C)C)ccc1OCc1cn(-c2cccc([N+](=O)[O-])c2)nn1 — growth percent (EKVX; SRB; 10 µM, 48 h): 69%
O=c1[nH]c(N2CCC3(CC2)CN(CCO)c2cc(F)cc(F)c23)nc2c1CCCC2 — active β-catenin level (COLO 320DM; immunofluorescence, measured: non-phosphorylated β-catenin; 1 µM, 16 h, DMSO 100%): 0.63%
